Results from different studies.
Numbered parts are unrelated; each lists some results of a single study.

Set 1
Target: RNA binding protein fox-1 homolog 2, RRM domain, GST-SBP tag (RBFOX2, Homo sapiens, UniProt O43251-10, residues 100-194)
Technique: RNA Bind-n-Seq
Form: RNA
Matrix: in vitro
Tested at: 365 nM
Setting: natural RNA segment, single round, ends assumed
Relative to: no-protein control
Direction: higher = stronger binding
Constant ends, left off below: GGGAGUUCUACAGUCCGACGAUC … UGGAAUUCUCGGGUGCCAA
Residues (chain): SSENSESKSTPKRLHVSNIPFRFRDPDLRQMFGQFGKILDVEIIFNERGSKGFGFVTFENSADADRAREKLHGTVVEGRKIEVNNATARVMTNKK
Strand | RBNS enrichment (R)
CGAGAGGAUUUGCACAUGCCAAGCAGAGGGUGGCUCUCUUGGCAGUGAGAUUUGGGGGAAACAGACAUUAAGACAGCCUCCCAAAGCAGGGUGUGUUGCUCGUGACCCCA | 1.73
AAAGUUCCAUUACAGCUUACUGUGAAAGAAUUGACAAGACUGGCCUCAGACAAGCUAAUCAUGGUGCGACUCUCUCCCUUCCUCAUCCACCUCUUUGGGGACAAGAGGAU | 0.245
UAAGAAAAGAAAAAAGAAAGGAAAGGGGAUUAAUUUAGUGAAAGAUGAUUUUGCUCCUAGUUUUGAUUUCUGCCAGGAUUGAAUUAUUUCAAAAUCUCCUGUGUUUUUUA | 1.25
UUGGGGAUCGAUGUGCUCAGCCAAAUUUCCUGUUUGAAAUAUCAUGUUAAAUUAGAAUGAAUUUAUCUUUACCAAAAACCAUGUUGCGUUCAAAGAGGUGAACAUUAAAA | 1.16
CUUCCUCCUGGCUGCACAGACACCUCUGCUUGGCCACAGCUUUGCUCUUUGGUCCUCAGGCCACCAGACCCCUCACAGCAUGGCCCUUGGCUCUUCCUGCACUGCCCUCA | 1.62
UCAUUCUUGCCGACUCCUCCCCCUCUGAAGCAGGUUAGCAUUGAAGGUGGUAUGGAAGCCUGCAUGCGUGUUCAACUCUGUUCCUCCUCCCUCCUCCUCGGCCUCCCUCC | 2.7
CCAUCCUCUCAUCUUGGGUCCCAGCCAGGCCCCCCCAAAACCAAAGCCCCCUCAAGUCCUGGGGUCCCAGCCUGUGCCCCCAGCUUCCUGCCCACCCAGCCCUGAGCAUU | 1.05
UGUGAAGUUUGAAGAUUUCUGAUUAGCUUUCAUCCGGUCUUCAUCUCUAUUUAUCUUAGAAGUUUAGUUUCCCCCACCUCCCCUACCUUCUCUAGGUGGACAUUAAACCA | 0.668

Set 2
Target: Sal-like protein 4, full length isoform A (SALL4, Homo sapiens, UniProt Q9UJQ4, residues 1-1053)
UniProt Q9UJQ4, sequence (whole entry, looked up): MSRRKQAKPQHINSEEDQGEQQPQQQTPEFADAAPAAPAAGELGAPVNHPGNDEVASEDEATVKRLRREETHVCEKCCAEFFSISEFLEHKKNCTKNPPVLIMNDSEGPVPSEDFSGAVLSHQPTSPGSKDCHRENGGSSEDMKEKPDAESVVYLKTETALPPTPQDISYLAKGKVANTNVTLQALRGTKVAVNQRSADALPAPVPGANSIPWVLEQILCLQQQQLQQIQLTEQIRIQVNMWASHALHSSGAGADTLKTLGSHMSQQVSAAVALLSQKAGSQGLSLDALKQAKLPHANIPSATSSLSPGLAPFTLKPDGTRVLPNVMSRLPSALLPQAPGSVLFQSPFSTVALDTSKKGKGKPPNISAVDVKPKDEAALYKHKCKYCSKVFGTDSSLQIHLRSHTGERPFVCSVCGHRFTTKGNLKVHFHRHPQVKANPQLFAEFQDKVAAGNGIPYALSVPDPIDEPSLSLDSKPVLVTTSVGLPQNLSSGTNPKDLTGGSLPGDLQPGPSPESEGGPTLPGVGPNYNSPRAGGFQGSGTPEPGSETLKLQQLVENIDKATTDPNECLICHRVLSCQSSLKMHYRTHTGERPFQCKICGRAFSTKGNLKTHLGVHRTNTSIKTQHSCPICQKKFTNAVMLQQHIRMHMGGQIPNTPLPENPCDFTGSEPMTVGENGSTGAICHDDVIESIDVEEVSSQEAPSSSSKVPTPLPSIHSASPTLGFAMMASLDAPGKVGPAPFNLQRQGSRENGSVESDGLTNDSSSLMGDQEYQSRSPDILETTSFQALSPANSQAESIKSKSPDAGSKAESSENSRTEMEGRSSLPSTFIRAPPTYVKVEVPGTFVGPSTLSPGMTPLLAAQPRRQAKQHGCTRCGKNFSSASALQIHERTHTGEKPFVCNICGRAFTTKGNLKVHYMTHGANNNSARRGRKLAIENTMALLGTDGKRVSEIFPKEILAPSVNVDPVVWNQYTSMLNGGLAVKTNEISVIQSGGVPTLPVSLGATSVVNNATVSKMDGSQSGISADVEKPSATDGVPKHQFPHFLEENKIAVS
Technique: universal PBM
Form: double-stranded DNA, one strand shown
Matrix: in vitro
Tested at: 600 nM
Setting: 8-mer, flanks averaged, mean of replicates
Direction: higher = stronger binding
Strand | E-score
CTTGAGGA | -0.0713
AACCGAGG | -0.227
TCAGGTAA | 0.0876
ACAGCCCT | -0.289
ATAGGATC | 0.152
GACGGCCA | -0.276
ACTTACGA | 0.153
AACGGGAT | -0.0948
CCACGTGG | -0.468
AGGAAGCG | -0.128
AGAGTAAG | 0.0385
AAAACGCT | 0.112
CTAACGCA | 0.079
CTTGCCGA | -0.0758
AACCGCGA | -0.0832
ACCAGTGG | -0.171
ACTGACTA | 0.0314
AGGTGACT | -0.0126
TGTAGTAA | 0.246

Set 3
Target: RING finger protein unkempt homolog, zinc fingers 1-6, GST-SBP tag (UNK, Homo sapiens, UniProt Q9C0B0, residues 30-357)
Technique: RNA Bind-n-Seq
Form: RNA
Matrix: in vitro
Tested at: not given
Setting: RNA with constant flanks, human-mouse chimeric sites, ends assumed
Relative to: input RNA pool
Direction: higher = stronger binding
Constant ends, left off below: GGGAGUUCUACAGUCCGACGAUC … CAACAGAGGAUUGAGCAUCA
Residues (chain): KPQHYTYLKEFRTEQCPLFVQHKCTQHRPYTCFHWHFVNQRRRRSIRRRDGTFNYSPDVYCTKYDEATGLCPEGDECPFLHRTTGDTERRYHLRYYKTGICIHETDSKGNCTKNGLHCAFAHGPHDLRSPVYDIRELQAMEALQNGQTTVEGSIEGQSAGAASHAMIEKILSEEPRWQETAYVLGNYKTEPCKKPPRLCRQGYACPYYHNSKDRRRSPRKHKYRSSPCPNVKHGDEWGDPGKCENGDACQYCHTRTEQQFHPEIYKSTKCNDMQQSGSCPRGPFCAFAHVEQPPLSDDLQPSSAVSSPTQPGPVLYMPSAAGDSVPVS
Strand | bound/input enrichment [ratio]
CUGUUUUGACAGCCACAAAUUCUUGGCAUGUAUUAAGGAAAAAAAAAAUCCCUGUUGAAGUAGUUUUUCCACCUAUCAGCACUGAGUAAAUGCCAUAACUCCGCGGAAAUGGUCUAAAUA | 0.235
CACACCCUCUUCUGCGGGACCCUCAUCUUGCAGGCCCGAGCCUACGUGGGACCGCACGUCCUGGCAGUGGUGACCCGCACAGGGUUCUGCACGGCAAAAGGGGGCCUGGUGAGCUCCAUC | 0.0794
UCCCAAAUCCAGCAGCUAGAAGGAGCCUUGAGACAAACACUCCACACGCAGGGAGGGCGAUAACAUUGUACAUUGGUUUACAUUUUUUCCCCCUGUGGAUUUUUCUAUCCUAGUGCUUGC | 0.261
UGUGCAUAUGAUGCUUGAGAUGGUUUUUGCAGAUGCAGAAAUCGCUGCAAGGUAAUCCUAAUAGAGAAAAGUGGUAUUUUAAACCUUUGAAAUAAAUGGAUGUAACUGUACCUUGGUACA | 1.01
GUGCCCUCCUUCUCGCUGCGGAGCCCGAGCUGGGAACCAUUCCGGGACUGGUACCCUGCACACAGCCGCCUCUUCGACCAGGCCUUCGGGGUGCCCCGGUUGCCCGAUGAGUGGUCGCAG | 0.0842
AGAAAGCAAAACUUGGAACGAUUUAAGAAAGGAGACGUAAGAUUCUUGAUUUGCACAGAUGUAGCUGCUAGAGGGAUUGAUAUCCAUGGUGUUCCUUAUGUGAUCAAUGUCACUCUGCCU | 0.214
GCCACCAGAUCCCAGAAACAUGACCCUUGCUGCCUACAAAGAGAAGAUGAAGGAACUCCCGCUGGUGUCUCUGUUCUGCUCCUGCUUCCUGGCCGAUCCCCUGAAUAAGUCGUCCUACAA | 0.415
UCUGAGGUACCACUGAAGAGACCUUAAAAGGAGUCAUUGAGGGCUCUGUUCGUGCAAGAAUAGUCACUGAUCGGGAAACUGGUUCUUCCAAAGGGUUUGGUUUUGUAGACUUUAAUAGUG | 0.908

Set 4
Target: Ras GTPase-activating protein-binding protein 1, RRM domain (G3BP1, Homo sapiens, UniProt Q13283)
UniProt Q13283, sequence (whole entry, looked up): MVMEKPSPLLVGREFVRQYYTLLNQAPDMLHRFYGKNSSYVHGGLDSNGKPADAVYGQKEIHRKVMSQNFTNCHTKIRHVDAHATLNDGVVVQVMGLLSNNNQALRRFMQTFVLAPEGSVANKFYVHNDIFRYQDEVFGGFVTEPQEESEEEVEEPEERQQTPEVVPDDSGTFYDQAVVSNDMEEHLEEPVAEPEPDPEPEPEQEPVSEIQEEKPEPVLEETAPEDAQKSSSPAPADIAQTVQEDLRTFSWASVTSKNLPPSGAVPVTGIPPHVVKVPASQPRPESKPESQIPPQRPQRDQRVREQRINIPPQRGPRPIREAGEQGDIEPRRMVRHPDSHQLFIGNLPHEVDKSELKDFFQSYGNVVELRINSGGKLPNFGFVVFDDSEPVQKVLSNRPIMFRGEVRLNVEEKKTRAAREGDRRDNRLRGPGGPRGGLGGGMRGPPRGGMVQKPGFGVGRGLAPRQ
Technique: RNA Bind-n-Seq
Form: RNA
Matrix: in vitro
Tested at: 1 µM
Setting: whole 134-nt RNA, ends assumed
Together with: 150 mM KCl
Relative to: input library
Direction: higher = stronger binding
Constant ends, left off below: GGGAGUUCUACAGUCCGACGAUC … UGGAAUUCUCGGGUGUCAAGG
Strand | log2 enrichment
UGGCCCUGGUGGCAUGCGGGGAGGAAUAGGUGGCCUCAUGGAUCGUGGUGGUCCCGGUGGAAUGUUCAGAGGUGGCCGUGGUGGAGACAG | 0.734
AAGUCCUGUGCUACACAUCGUAUGUACCGAAUCAAACCCCCAAACCCAAACCCAAAAAAGUAUUAUGUUACGCCGUUCGGAUCUGCACUU | -0.233
UGGGAGGUUGAUUUUGUUUAUUUUUUUAGCUCAUUUCCAGGGGUGGGAAUUUUUUUUUAAUAUGUGUCAUGAAUAAAGUUGUUUUUGAAA | 1.76
ACCAUGCAGGUGGGCAUCUUUGGGAAGUGGGGCAAGGGGGGGAUAGGGAGGGGGGUAACACUUUGGGAACAGGUGGUCCCAGGUCAAAUC | -0.412
UCCUGUGCUACACAUCGUAUGUACCGAAUCGGGUUUUUUGGGUUUUUUGGUUUUUUGGGGAAAGUAUUAUGUUACGCCGUUCGGAUCUGC | -0.0879
CACAGACAACACGCACCCACACAGACACAGAGGGAAGGGGUUGGGAUGGGGACAGGGUGCACAGCAGGGCGGGGUAGAACCCCAGCCCCU | -0.471
CUCAAGUCCUGUGCUACACAUCGUAUGUACCGAAUCGGGGCGGGCGGGGCGGGGAAAGUAUUAUGUUACGCCGUUCGGAUCUGCACUUCC | 0.51
CCUGUGCUACACAUCGUAUGUACCGAAUCGGGUUUUUUGGUUUUUUGGGGUUUUUUGGGGAAAGUAUUAUGUUACGCCGUUCGGAUCUGC | -0.364
UCCUGUGCUACACAUCGUAUGUACCGAAUCGGUUUUUUGGGGUUUUUUGGGUUUUUUGGAAAGUAUUAUGUUACGCCGUUCGGAUCUGCA | -0.0746

Excerpt of the above (set 4):
Strand | log2 enrichment
AAGUCCUGUGCUACACAUCGUAUGUACCGAAUCAAACCCCCAAACCCAAACCCAAAAAAGUAUUAUGUUACGCCGUUCGGAUCUGCACUU | -0.233
UGGGAGGUUGAUUUUGUUUAUUUUUUUAGCUCAUUUCCAGGGGUGGGAAUUUUUUUUUAAUAUGUGUCAUGAAUAAAGUUGUUUUUGAAA | 1.76
ACCAUGCAGGUGGGCAUCUUUGGGAAGUGGGGCAAGGGGGGGAUAGGGAGGGGGGUAACACUUUGGGAACAGGUGGUCCCAGGUCAAAUC | -0.412
UCCUGUGCUACACAUCGUAUGUACCGAAUCGGGUUUUUUGGGUUUUUUGGUUUUUUGGGGAAAGUAUUAUGUUACGCCGUUCGGAUCUGC | -0.0879
CACAGACAACACGCACCCACACAGACACAGAGGGAAGGGGUUGGGAUGGGGACAGGGUGCACAGCAGGGCGGGGUAGAACCCCAGCCCCU | -0.471
CUCAAGUCCUGUGCUACACAUCGUAUGUACCGAAUCGGGGCGGGCGGGGCGGGGAAAGUAUUAUGUUACGCCGUUCGGAUCUGCACUUCC | 0.51
